Experimental data pooled from the literature.
Protocols differ between the studies behind these lines. Values joined by “and” are separate records of one study, mostly repeats; a detail may differ. ± gives the spread as reported.
CASP9: Caspase-9 (CASP9, Homo sapiens, UniProt P55211)
UniProt P55211, sequence (whole entry, looked up): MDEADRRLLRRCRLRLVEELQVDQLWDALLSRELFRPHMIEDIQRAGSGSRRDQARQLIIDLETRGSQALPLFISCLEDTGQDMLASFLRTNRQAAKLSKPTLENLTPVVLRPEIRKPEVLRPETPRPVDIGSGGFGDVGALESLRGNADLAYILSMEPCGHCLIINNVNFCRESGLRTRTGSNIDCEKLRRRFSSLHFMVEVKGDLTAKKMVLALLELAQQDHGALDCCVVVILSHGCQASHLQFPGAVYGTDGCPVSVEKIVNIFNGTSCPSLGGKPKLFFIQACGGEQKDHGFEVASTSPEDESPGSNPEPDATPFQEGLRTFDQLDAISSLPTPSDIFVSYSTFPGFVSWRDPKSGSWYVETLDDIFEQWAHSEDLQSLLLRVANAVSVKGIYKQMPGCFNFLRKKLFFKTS
CASP4: Caspase-4 (CASP4, Homo sapiens, UniProt P49662)
UniProt P49662, sequence (whole entry, looked up): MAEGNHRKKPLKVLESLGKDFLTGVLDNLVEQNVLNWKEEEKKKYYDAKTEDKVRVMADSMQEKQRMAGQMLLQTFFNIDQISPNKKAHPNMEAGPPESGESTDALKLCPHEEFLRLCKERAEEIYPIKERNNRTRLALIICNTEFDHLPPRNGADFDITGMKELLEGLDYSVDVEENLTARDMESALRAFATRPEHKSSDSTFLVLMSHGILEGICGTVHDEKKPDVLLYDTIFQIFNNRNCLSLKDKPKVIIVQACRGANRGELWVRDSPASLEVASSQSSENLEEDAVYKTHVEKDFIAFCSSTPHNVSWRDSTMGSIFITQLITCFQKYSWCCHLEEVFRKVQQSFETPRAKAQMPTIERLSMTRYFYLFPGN
DHODH: Dihydroorotate dehydrogenase (quinone), mitochondrial (DHODH, Homo sapiens, UniProt Q02127)
UniProt Q02127, sequence (whole entry, looked up): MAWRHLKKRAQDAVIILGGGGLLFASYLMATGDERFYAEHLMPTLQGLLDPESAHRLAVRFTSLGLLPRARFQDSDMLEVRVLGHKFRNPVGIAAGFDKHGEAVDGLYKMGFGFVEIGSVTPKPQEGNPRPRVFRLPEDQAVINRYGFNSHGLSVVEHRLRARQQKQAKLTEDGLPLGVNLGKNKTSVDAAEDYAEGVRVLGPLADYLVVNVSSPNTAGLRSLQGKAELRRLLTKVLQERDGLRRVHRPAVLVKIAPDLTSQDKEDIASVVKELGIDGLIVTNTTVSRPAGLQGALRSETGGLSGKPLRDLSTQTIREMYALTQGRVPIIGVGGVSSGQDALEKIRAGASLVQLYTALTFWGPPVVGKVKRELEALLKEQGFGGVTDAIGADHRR
USP5: Ubiquitin carboxyl-terminal hydrolase 5 (USP5, Homo sapiens, UniProt P45974)
UniProt P45974, sequence (whole entry, looked up): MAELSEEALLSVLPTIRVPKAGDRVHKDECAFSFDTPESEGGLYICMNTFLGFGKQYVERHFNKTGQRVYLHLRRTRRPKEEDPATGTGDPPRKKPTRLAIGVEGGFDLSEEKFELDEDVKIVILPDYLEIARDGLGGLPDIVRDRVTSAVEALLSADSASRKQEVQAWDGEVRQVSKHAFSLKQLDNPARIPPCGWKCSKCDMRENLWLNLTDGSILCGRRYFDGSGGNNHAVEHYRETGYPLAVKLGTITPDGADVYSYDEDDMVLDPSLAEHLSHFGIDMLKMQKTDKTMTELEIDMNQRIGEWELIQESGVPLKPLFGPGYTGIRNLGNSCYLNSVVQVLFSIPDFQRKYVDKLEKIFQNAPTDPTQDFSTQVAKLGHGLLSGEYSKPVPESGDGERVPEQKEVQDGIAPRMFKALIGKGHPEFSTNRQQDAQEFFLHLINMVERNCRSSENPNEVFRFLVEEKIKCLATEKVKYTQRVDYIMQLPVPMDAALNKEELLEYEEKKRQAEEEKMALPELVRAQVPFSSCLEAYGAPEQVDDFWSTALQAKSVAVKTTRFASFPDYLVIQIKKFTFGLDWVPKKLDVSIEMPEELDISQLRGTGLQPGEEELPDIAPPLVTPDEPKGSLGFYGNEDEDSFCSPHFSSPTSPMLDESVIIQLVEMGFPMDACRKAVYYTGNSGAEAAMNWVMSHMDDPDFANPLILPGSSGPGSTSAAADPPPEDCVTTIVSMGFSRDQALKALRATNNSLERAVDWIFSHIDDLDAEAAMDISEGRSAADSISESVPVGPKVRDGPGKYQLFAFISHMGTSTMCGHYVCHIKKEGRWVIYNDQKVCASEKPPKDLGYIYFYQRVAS
Lysophospholipase-like protein 1: Lysophospholipase-like protein 1 (Mus musculus, UniProt Q3UFF7)
UniProt Q92633, sequence (whole entry, unmodified, looked up): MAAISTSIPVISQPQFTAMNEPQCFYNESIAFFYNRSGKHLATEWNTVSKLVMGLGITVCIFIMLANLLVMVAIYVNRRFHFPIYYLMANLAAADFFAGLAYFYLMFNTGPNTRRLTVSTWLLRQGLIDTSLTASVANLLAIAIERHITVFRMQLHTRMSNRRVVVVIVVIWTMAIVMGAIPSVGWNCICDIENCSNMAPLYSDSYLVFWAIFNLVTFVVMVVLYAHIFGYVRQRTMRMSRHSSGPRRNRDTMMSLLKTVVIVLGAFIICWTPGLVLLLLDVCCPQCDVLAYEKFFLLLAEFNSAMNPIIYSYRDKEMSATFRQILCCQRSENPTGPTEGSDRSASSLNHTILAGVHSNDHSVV
UniProt Q3UFF7, sequence (whole entry, looked up): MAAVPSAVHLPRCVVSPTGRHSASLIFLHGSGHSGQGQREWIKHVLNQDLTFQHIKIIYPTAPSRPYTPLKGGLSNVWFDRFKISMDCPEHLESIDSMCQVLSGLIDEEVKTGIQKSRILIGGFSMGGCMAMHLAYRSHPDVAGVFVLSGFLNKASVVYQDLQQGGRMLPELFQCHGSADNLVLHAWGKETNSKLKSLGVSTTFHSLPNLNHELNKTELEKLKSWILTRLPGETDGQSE
UniProt P0ABQ4, sequence (whole entry, looked up): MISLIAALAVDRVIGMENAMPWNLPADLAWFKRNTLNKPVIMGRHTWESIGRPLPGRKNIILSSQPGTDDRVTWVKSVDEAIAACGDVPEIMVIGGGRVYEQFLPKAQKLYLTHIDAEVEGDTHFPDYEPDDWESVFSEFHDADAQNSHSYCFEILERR
UniProt P25103, sequence (whole entry, looked up): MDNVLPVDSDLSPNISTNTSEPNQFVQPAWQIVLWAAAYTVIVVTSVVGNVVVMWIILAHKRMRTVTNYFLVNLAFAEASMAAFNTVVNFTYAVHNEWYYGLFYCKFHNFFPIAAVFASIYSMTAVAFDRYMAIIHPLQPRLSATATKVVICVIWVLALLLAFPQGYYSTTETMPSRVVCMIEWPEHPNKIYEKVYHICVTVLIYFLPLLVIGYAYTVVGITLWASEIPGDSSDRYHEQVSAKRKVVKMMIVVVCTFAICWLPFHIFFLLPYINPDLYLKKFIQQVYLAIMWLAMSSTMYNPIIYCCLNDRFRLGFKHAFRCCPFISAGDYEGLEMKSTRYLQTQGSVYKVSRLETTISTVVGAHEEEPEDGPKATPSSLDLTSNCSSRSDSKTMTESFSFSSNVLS
UniProt P01317, sequence (whole entry, looked up): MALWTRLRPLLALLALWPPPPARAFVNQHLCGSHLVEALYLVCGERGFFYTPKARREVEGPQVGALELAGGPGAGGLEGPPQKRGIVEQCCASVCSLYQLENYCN
UniProt P14618, sequence (whole entry, looked up): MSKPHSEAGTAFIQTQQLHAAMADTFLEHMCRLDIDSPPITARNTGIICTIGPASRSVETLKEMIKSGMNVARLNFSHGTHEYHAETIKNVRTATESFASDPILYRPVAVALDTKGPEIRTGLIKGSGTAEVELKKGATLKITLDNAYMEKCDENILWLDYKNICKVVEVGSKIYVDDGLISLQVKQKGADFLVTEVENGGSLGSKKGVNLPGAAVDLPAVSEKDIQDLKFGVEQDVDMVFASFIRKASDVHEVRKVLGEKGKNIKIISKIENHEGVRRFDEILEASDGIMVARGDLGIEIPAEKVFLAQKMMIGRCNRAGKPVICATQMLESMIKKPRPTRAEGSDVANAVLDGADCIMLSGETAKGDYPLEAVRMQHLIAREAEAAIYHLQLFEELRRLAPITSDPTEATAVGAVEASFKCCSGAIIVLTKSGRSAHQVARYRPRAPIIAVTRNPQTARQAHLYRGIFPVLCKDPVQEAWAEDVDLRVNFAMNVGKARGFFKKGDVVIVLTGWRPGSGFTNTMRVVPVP
UniProt Q93009, sequence (whole entry, looked up): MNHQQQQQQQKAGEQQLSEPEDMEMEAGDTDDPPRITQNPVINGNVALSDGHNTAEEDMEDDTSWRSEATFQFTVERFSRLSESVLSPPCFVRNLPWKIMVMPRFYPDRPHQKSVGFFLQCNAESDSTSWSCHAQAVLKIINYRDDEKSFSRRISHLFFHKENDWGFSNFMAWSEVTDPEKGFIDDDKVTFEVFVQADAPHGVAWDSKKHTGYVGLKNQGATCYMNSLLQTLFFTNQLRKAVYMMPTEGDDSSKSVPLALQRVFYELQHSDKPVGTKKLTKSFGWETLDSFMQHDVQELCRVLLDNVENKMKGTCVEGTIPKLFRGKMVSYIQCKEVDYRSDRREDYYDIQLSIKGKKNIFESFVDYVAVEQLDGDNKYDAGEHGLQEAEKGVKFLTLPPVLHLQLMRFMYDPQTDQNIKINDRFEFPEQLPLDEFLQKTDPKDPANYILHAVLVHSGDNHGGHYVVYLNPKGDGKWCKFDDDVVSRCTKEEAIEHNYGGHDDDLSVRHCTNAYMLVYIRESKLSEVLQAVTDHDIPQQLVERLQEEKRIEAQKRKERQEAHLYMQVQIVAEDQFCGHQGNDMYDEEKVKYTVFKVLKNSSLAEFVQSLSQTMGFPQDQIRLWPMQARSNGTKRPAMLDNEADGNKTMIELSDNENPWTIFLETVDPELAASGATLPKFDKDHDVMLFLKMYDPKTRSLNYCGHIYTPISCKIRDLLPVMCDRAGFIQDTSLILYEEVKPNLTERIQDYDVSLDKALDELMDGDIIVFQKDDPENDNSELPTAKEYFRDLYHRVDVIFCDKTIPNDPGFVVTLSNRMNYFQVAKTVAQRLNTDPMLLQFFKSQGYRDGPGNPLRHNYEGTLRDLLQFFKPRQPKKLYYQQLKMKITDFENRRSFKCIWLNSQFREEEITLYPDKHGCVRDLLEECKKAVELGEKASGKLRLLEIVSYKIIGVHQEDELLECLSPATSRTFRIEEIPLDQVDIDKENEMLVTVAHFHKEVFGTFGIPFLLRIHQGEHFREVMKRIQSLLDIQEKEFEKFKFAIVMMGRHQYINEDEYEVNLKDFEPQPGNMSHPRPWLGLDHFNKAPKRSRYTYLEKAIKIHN

| SMILES | target | test | test system | setting | how to read | measurement | value |
| --- | --- | --- | --- | --- | --- | --- | --- |
| CC(=O)N[C@@H](CC(=O)O)C(=O)N[C@@H](Cc1ccc2ccccc2c1)C(=O)N[C@@H](C)C(=O)N[C@@H](CC(=O)O)C(=O)COC(=O)c1c(C)cccc1C | CASP9 | enzyme activity, inhibitor | – | – | – | kinact/KI | 24300 M⁻¹ s⁻¹ |
| COc1ccc(C(=O)c2c(C(=O)NCCCN(C)C)oc3ccc(Cl)cc3c2=O)cc1OC | GHSR (Homo sapiens, UniProt Q92847) | endosomal trafficking, agonist, bystander BRET 2xFYVE-Venus | – | 45 min, unit not given | baseline: baseline | Emax (net BRET) | 0.041 ± 0.007 |
| CC(=O)N[C@@H](CCC(N)=O)C(=O)N[C@@H](CC(C)C)C(=O)N1CCC[C@H]1C(=O)N[C@@H](CC(=O)O)C(=O)COC(=O)c1c(C)cccc1C | CASP4 | enzyme activity, inhibitor | – | – | – | kinact/KI | 900 M⁻¹ s⁻¹ |
| CC(C)Oc1cc(Cl)ccc1CNc1cc(-c2ccccc2)nc2ncnn12 | GPR3 (Homo sapiens, UniProt P46089, M156A) | agonist, cAMP GloSensor | – | concentration not given, M156A mutant | baseline: wild type | potency reduction | 5 fold |
| Cc1cc(Cl)cc(-c2ccnc3cc(CN4C(=O)C5C(C4=O)C5(C)C)sc23)c1C[C@@H]1CNCCO1 (stereo partly shown) | USP7 (Homo sapiens, UniProt Q93009) | ITC | – | concentration not given, wild-type enzyme | – | binding enthalpy | -13.5 ± 0.306 kcal/mol |
| CO[C@@H]1OC[C@@H](O)[C@H](O)[C@H]1O | PTGS2 (Homo sapiens, UniProt P35354) | enzyme activity, inhibitor | – | 0.12 µg/mL | – | inhibition | 0% |
| CC(=O)N[C@@H](CC(C)C)C(=O)N[C@@H](CCC(=O)O)C(=O)N[C@@H](COCc1ccccc1)C(=O)N[C@@H](CC(=O)O)C(=O)COC(=O)c1c(C)cccc1C | CASP4 | enzyme activity, inhibitor | – | – | – | kinact/KI | 67200 M⁻¹ s⁻¹ |
| O=C1CC(c2ccoc2)c2ccc(NC(=O)c3ccccc3)cc2N1 (stereo not shown) | Aromatase (CYP19A1, Homo sapiens, UniProt P11511) | enzyme activity, inhibitor | – | concentration not given, together with: MFC substrate | – | fractional activity at saturation | ≤ 0.524 |
| COc1ccc(/C=C2\S/C(=N/c3ccc(Cl)cc3C(=O)O)NC2=O)cc1 | DHODH | enzyme activity, inhibitor, DCIP reduction | – | 0.5 µM | higher = more activity | reaction rate | -20.6 a.u. |
| C[C@@H](Nc1nc(N[C@H](C)C(F)(F)F)nc(-c2cccc(Cl)n2)n1)C(F)(F)F | IDH1 (Homo sapiens, UniProt O75874, R132H) | enzyme activity | – | 16 h preincubation, mutant heterodimer, reverse reaction | – | maximal inhibition | 115 ± 6.4% |
| C=CC(=O)N1CCCC(n2c(=O)c3ncccc3n(Cc3ccc(Oc4ccccc4)cc3)c2=O)C1 (stereo not shown) | Talin-1 (TLN1, Homo sapiens, UniProt Q9Y490) | thermal proteome profiling | cell proteome | unit not given | baseline: vehicle | melting temperature shift | -3.71 |
| CC[C@H](C)[C@H](NC(=O)[C@H](CC(=O)O)NC(C)=O)C(=O)N[C@@H](Cc1ccccc1)C(=O)N[C@@H](Cc1ccccc1)C(=O)N[C@@H](CCCNC(=N)N)C(=O)N[C@@H](Cc1ccc(O)cc1)C(=O)N[C@@H](CC(N)=O)C(=O)NCC(=O)N[C@@H](CCCCN)C(=O)N[C@H](C(=O)N[C@@H](Cc1c[nH]c2ccccc12)C(=O)N[C@@H](Cc1c[nH]c2ccccc12)C(=O)N[C@@H](CCCNC(=N)N)C(=O)O)C(C)C | Insulin (INS, Bos taurus, UniProt P01317) | circular dichroism | – | 800 min, final stage after heating, together with: INS 350 µM | – | β-strand content | 32% |
| COC(=O)c1[nH]c2sc3c(c2c1N)CCCC3 | USP5 | enzyme activity, inhibitor | – | 17 µM | – | inhibition | 76% |
| C[Si](C)(C)C[C@@H](CN)CC(=O)O | NMDA receptor, rat | binding, radioligand binding | – | 75 µM, together with: [3H]TCP | – | inhibition | -2% |
| C=CC(=O)N1[C@H](c2ccc3c(c2)OCO3)c2[nH]c3ccccc3c2C[C@H]1C(=O)N1CCOCC1 | Hepatocyte nuclear factor 3-alpha (FOXA1, Homo sapiens, UniProt P55317) | chromatin binding, ChIP-seq | 22Rv1 | 20 µM, 3 h | – | genome-wide binding | no effect |
| CC(=O)N1[C@H](C(=O)N[C@H](C(=O)N[C@@H](Cc2c[nH]cn2)C(=O)N[C@@H](CC(=O)O)C(=O)COC(=O)c2c(C)cccc2C)C(C)(C)C)C[C@@H]2CCCC[C@@H]21 | CASP4 | enzyme activity, inhibitor | – | – | – | kinact/KI | 1100 M⁻¹ s⁻¹ |
| N=C(N)NCCS(=O)(=O)O | SLC6A6 (Homo sapiens, UniProt P31641, Y138A) | binding, microscale thermophoresis | – | 35 nM, fitted curve | higher = more binding | fraction bound | 0 |
| O=C1c2sc(-c3ccc(N4CCC(F)C4)nc3F)nc2CCN1c1cccnc1 (stereo not shown) | TAR DNA-binding protein 43, aggregated (TARDBP, Homo sapiens, UniProt Q13148) | binding, surface plasmon resonance | brain-derived TDP-43 aggregates | 9.38 nM | – | SPR response | 0.799 RU |
| CCCCCC(O)/C=C/C=O (stereo not shown) | WD repeat domain phosphoinositide-interacting protein 3 (WDR45B, Homo sapiens, UniProt Q5MNZ6) | competitive isoTOP-ABPP | proteome, soluble, MDA-MB-231 | 100 µM, 60 min, together with: iodoacetamide probe | baseline: DMSO over compound-treated, higher = stronger cysteine blockade | isoTOP-ABPP competition ratio | 2.7 |

| SMILES | target | test | test system | setting | how to read | measurement | value |
| --- | --- | --- | --- | --- | --- | --- | --- |
| CC(=O)N1C[C@H](O)C[C@H]1C(=O)N[C@H](C(=O)N[C@@H](CO)C(=O)N[C@@H](CC(=O)O)C(=O)COC(=O)c1c(C)cccc1C)C(C)C | CASP9 | enzyme activity, inhibitor | – | – | – | kinact/KI | 31400 M⁻¹ s⁻¹ |
| CN(/N=C/c1ccc(F)cc1C(=O)NO)c1nc(-c2ccccc2Cl)cs1 | DHODH | enzyme activity, inhibitor, DCIP colorimetric | – | 3333.33 nM | – | percent effect | 0.91% and 1.08% and 1.06% |
| CSCC[C@H](NC(=O)[C@H](CC(C)C)NC(=O)CNC(=O)[C@@H](NC(=O)[C@H](Cc1ccccc1)NC(=O)[C@H](CO)NC(=O)[C@H](CC(=O)O)NC(=O)[C@@H](NC(=O)[C@H](CCCCN)NC(=O)[C@@H](N)Cc1c[nH]cn1)[C@@H](C)O)C(C)C)C(N)=O | TACR1 (Homo sapiens, UniProt P25103) | calcium mobilization | – | – | baseline: 1 µM ionomycin | Emax | 89 ± 10% |
| CCN(CC)C(CO)c1cccc2c(C)c(C)oc12 (stereo not shown) | LPAR1 (Homo sapiens, UniProt Q92633, W271F) | G-protein dissociation, agonist, NanoBiT | HEK-293T | 10 pM, W271F mutant | baseline: baseline luminescence | fold change | 1.01 and 1.02 and 0.963 |
| N#CN1CC[C@H](C(=O)Nc2nc3c(s2)CN(C(=O)CN=[N+]=[N-])CC3)C1 | Pyruvate kinase PKM (PKM, Homo sapiens, UniProt P14618) | click pull-down LC-MS/MS | HEK293T cells | – | – | total spectral count | 2 |
| CC1CCCc2c(N)nc(N)nc21 (stereo not shown) | folA (Escherichia coli, UniProt P0ABQ4) | – | – | concentration not given, ternary complex with NADPH | – | exchange rate kex | 585 ± 132 s⁻¹ |
| O=c1cnnc(N/N=C/C=C/c2ccccc2)[nH]1 | USP5 | enzyme activity, inhibitor | – | 17 µM | – | inhibition | 3% |
| O=C(NO)c1ccc(Cn2c3c(c4cc(Br)ccc42)SC(c2ccccc2)C3)s1 (racemic) | Histone deacetylase 8 (Schistosoma mansoni, UniProt A5H660) | X-ray crystallography | – | ligand-Lys20 side chain, chain B, O1-NZ | – | interatomic distance | 3.93 Å |
| [O-][N+](=Cc1ccc(O)cc1)c1ccccc1 | USP5 | enzyme activity, inhibitor | – | 17 µM | – | inhibition | 15% |
| CC(=O)N[C@@H](CCCNC(=N)N)C(=O)N[C@H](C(=O)N[C@@H](CCCCN)C(=O)N[C@@H](CO)C(=O)N[C@@H](CCCNC(=N)N)C(=O)N[C@H](C(=O)N[C@@H](Cc1c[nH]c2ccccc12)C(=O)N[C@@H](C)C(=O)N[C@@H](Cc1ccc(O)cc1)C(N)=O)[C@@H](C)OP(=O)(O)O)[C@@H](C)O | 14-3-3 protein epsilon (Homo sapiens, UniProt P62258) | thermal stability, DSF | – | 30 µM, pH 7.4 | – | ΔTm | 3.78 °C |
| O=C1c2ccccc2C(=O)c2c1oc1c3c(ccc21)OCN(C1CCCC1)C3 | USP5 | enzyme activity, inhibitor | – | 17 µM | – | inhibition | 38% |
| CC(=O)N[C@H](C(=O)N[C@@H](CCCCN)C(=O)N[C@@H](CCC(N)=O)C(=O)N[C@@H](CC(=O)O)C(=O)COC(=O)c1c(C)cccc1C)C(C)C | CASP4 | enzyme activity, inhibitor | – | – | – | kinact/KI | 300 M⁻¹ s⁻¹ |
| Nc1nc(SCc2ccc(Cl)cc2)nn1S(=O)(=O)c1ccsc1 | Lysophospholipase-like protein 1 | enzyme activity, activator, gel-based ABPP | purified protein | concentration not given, together with: FP-rhodamine | baseline: DMSO | probe labeling increase | 2.7 fold |
| CCCCCC=CC=C1C(=O)C=CC1CC=CCCCC(=O)O (stereo not shown) | MIF4G domain-containing protein (MIF4GD, Homo sapiens, UniProt A9UHW6) | competitive isoTOP-ABPP, item: MIF4GD cysteine peptide | proteome, soluble, MDA-MB-231 | 100 µM, together with: iodoacetamide probe | baseline: DMSO over compound-treated, higher = stronger cysteine blockade | isoTOP-ABPP competition ratio | 3.2 |
| Cc1nc2ccc(S(=O)(=O)n3nc(NCc4ccc(Cl)cc4)nc3N)cc2s1 | Lysophospholipase-like protein 1 | enzyme activity, activator, gel-based ABPP | purified protein | concentration not given, together with: FP-rhodamine | baseline: DMSO | probe labeling increase | 1 fold |
| CC(C)C[C@H](NC(=O)[C@@H](NC(=O)[C@H](Cc1ccccc1)NC(=O)c1ccc(OC(C)(C)C)cc1)C(C)C)C(=O)N[C@@H](CCCCN(C)C1CC2CCC1C2)C(=O)N[C@@H](CO)C(N)=O (stereo partly shown) | Chromobox protein homolog 8 (Homo sapiens, UniProt Q9HC52) | TR-FRET displacement | – | – | baseline: IC50 CBX7 over IC50 CBX8 | selectivity ratio | 48 |
| CC(=O)NCCCC[C@H](NC(C)=O)C(=O)N[C@@H](CCCC(=O)O)C(=O)N[C@@H](C)C(=O)N[C@@H](CC(=O)O)C(=O)COC(=O)c1c(C)cccc1C | CASP9 | enzyme activity, inhibitor | – | – | – | kinact/KI | 84800 M⁻¹ s⁻¹ |
| Cc1cc(C)cc(COc2cc3c(cc2OCc2cc(C)cc(C)c2)C2CC(O)(Cc4cn(CCOCCOCCNC(=O)CCCCC5SCC6NC(=O)NC65)nn4)CC(C)N2CC3)c1 (stereo not shown) | ATP2A2 (Homo sapiens, UniProt P16615) | biotinylated probe pull-down | – | 10 µM probe | baseline: heavy over light | SILAC ratio | 1.48 |
